# Experimental data of several laboratories.
# Protocols differ between the studies behind these lines.
SMILES,assay,test system,conditions,solubility
Cc1cc(C)c(C#N)c(SCC(=O)c2ccc(F)cc2)n1,,aqueous buffer,"pH 7.4, 25 °C",< 5 µM
Cc1[nH]c(C(=O)Nc2ccc(-c3n[nH]c(=O)o3)cc2N2CCNCC2)c(Cl)c1Cl.Cl,,PBS,"24 h, pH 7.4, 25 °C",< 0.001 mg/mL
CN(C)C(=O)c1cc2cnc(Nc3ccc(N4CCNCC4)cn3)nc2n1C1CCCC1,,aqueous buffer,"24 h, pH 7.5, 37 °C",0.3 mg/mL
COc1cc(Cc2cnc(N)nc2N)cc(OC)c1OC,shake flask,water,,0.488 mg/mL
CC(/C=C/C=C(\C)C(=O)O)=C\C=C\C=C(C)\C=C\C=C(/C)C(=O)O,shake flask,PBS,"1 h, pH 7.4, 37 °C",0.0139 mg/mL
C[N+](C)(C)CCO.O=C([O-])[C@H](O)Cc1ccccc1,,water,,1490 mg/mL
COc1cc(CO)c(-c2ccc3c(c2O)[C@@H](C)N[C@H](C)C3)c2cccc(O)c12,shake flask,PBS,"24 h, pH 6.5, 25 °C",200 µM
Cc1cc(/C=C/C#N)cc(C)c1Oc1nc(NC2CCN(Cc3ccc(P(C)(C)=O)cc3)CC2)nc2ccsc12,,water,pH 7,0.0364 mg/mL
Cc1cc(C)c(C#N)c(SCC(=O)c2cccs2)n1,,aqueous buffer,"pH 7.4, 25 °C",< 5 µM
O=c1[nH]cc(F)c(=O)[nH]1,shake flask,simulated gastric fluid,"pH 1.2, acidic",11.7 mg/mL
COc1ccccc1C(=O)CSc1nc(C)cc(C)c1C#N,,aqueous buffer,"pH 7.4, 25 °C",< 5 µM
COC(=O)N[C@H](C(=O)N1CCC[C@H]1c1nc(-c2ccc(-c3ccc(-c4c[nH]c([C@@H]5CCCN5C(=O)[C@@H](NC(=O)OC)C(C)C)n4)cc3)cc2)c[nH]1)C(C)C,,aqueous buffer,pH 7.4,0.5 µM
Cc1cc(C)c(C#N)c(SCC(=O)c2ccccc2)n1,,aqueous buffer,"pH 7.4, 25 °C",< 5 µM
CCOC(=O)c1cn(CC)c2cc(N3CCC(Cc4ccccc4)CC3)c(F)cc2c1=O,shake flask,PBS,"2 h, pH 7.4, 25 °C",~10 µM
Cc1[nH]c(C(=O)Nc2ccc(-c3n[nH]c(=O)o3)cc2N2CCOC(C)C2)c(Cl)c1Cl (centres unmarked),,PBS,"24 h, pH 7.4, 25 °C",< 0.001 mg/mL
CCCN(Cc1ccccc1OC)C(=O)c1cccc(Br)c1,,aqueous buffer,"12 h, pH 7.4, 37 °C",0.036 mg/mL
Cc1cc(C)c(C(N)=O)c(SCC(=O)c2ccc(F)cc2)n1,,aqueous buffer,"pH 7.4, 25 °C",> 150 µM
CCCN(Cc1ccccc1OC)C(=O)c1cccc(C(F)(F)F)c1,,aqueous buffer,"12 h, pH 7.4, 37 °C",0.9 mg/mL
Cc1cc(C)c(C#N)c(OCC(=O)c2ccccc2)n1,,aqueous buffer,"pH 7.4, 25 °C",34 µM
CCCCN(Cc1ccccc1OC)C(=O)c1cc(C)c(C)s1,,aqueous buffer,"12 h, pH 7.4, 37 °C",0.165 mg/mL
COc1ccc(C(=O)CSc2nc(C)cc(C)c2C#N)cc1,,aqueous buffer,"pH 7.4, 25 °C",< 5 µM
COc1ccc2c(O[C@@H]3C[C@H]4C(=O)N[C@]5(C(=O)NS(=O)(=O)C6CC6)C[C@H]5/C=C\CCCCN(C)C(=O)[C@@H]4C3)cc(-c3nc(C(C)C)cs3)nc2c1C,,aqueous buffer,pH 7.4,19 µM
CCCN(Cc1ccccc1OC)C(=O)c1cccc(Br)c1F,,aqueous buffer,"12 h, pH 7.4, 37 °C",0.028 mg/mL
